Measurements gathered from unrelated publications.
A part holds a random share of what one study measured.

Block 1 — method: protein binding microarray; molecule type: double-stranded DNA, one strand shown; medium: in vitro; tested at: not given; baseline: not given; direction: higher = stronger binding
Target: Histone acetyltransferase KAT6A, winged helix 2, GST fusion (KAT6A, Homo sapiens, UniProt Q92794, residues 85-181)
Setting: 8-mer, flanks averaged, mean of 2 arrays, mostly near background
Residues (chain): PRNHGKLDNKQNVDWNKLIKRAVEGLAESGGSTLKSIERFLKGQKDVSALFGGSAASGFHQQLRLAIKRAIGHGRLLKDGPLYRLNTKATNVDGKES
Strand | E-score
AACCCGAC | -0.00637
AGTTAAAG | 0.046
GAACAAAA | 0.0503
CGGGCAGC | 0.204

Block 2 — method: protein-binding microarray; molecule type: double-stranded DNA, one strand shown; medium: in vitro; tested at: 2540 nM top; setting: 60-bp whole probe; together with: salmon DNA 0.4 mg/ml; baseline: random background probes; direction: higher = stronger binding
Target: Interferon regulatory factor 3, full length, phosphomimetic (IRF3, Homo sapiens, UniProt Q14653, residues 1-427, S386D/S396D/S398D/S402D/T404D/S405D)
Residues (chain): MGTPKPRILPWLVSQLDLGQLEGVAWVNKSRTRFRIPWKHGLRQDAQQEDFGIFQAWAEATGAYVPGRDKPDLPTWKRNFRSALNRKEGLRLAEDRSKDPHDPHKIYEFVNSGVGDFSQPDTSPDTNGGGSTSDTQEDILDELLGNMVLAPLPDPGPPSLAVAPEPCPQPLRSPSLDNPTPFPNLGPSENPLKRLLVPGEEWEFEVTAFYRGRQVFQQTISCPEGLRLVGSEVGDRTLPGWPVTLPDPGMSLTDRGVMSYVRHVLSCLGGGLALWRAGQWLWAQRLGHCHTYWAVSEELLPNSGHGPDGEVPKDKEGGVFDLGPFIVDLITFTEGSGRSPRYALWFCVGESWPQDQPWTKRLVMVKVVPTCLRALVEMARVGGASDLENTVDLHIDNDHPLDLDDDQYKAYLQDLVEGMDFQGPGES
Strand | fitted relative affinity [z-score]
GCCTAGCACTTAGGTATCGACACTGGGTTCGTGCTAGTCTTGATTCGCTTGACGCTGCTG | 0.132
GCCTAGCACGACGGACTGGACACTGAGGACGTGCTAGTCTTGATTCGCTTGACGCTGCTG | -0.452
GCCTAGCACGACGGTTTCCTTTTCCTGACGTGCTAGGTCTTGATTCGCTTGACGCTGCTG | 10.5

Block 3 — method: RNA Bind-n-Seq; molecule type: RNA; medium: in vitro; tested at: 200 nM; setting: whole 134-nt RNA, ends assumed; together with: 150 mM KCl; baseline: input library; direction: higher = stronger binding
Target: Fragile X messenger ribonucleoprotein 1, C-terminal low-complexity region (Fmr1, Mus musculus, UniProt P35922)
Strand | log2 enrichment
GGGAGUUCUACAGUCCGACGAUCUGGGAGGUGGAUUUUGUUUAUGUUUUUAGCUCAUUUCCAGGGGUGGGAAUUUUUUUUUAAUAUGUGUCAUGAAUAAAGUUGUUUUUGAAAUGGAAUUCUCGGGUGUCAAGG | 0.124
GGGAGUUCUACAGUCCGACGAUCGUCCUGUGCUACACAUCGUAUGUACCGAAUCGGGGCCCCCGGCCCCCGGGCCCCCGGGAAAGUAUUAUGUUACGCCGUUCGGAUCUGCACUGGAAUUCUCGGGUGUCAAGG | -0.596
GGGAGUUCUACAGUCCGACGAUCAGUCCUGUGCUACACAUCGUAUGUACCGAAUCGGGGAAAGGGGUUUUUGGGGAGGGGAAAGUAUUAUGUUACGCCGUUCGGAUCUGCACUUGGAAUUCUCGGGUGUCAAGG | 0.883
GGGAGUUCUACAGUCCGACGAUCUCAAGUCCUGUGCUACACAUCGUAUGUACCGAAUCGGAAAGGAAAAAAAGGAGGAAAGUAUUAUGUUACGCCGUUCGGAUCUGCACUUCCUGGAAUUCUCGGGUGUCAAGG | -0.408

Single results of other studies
Molecule | target | test | test system | conditions | how to read | measurement | value
PhoQ, residues 284 288 289 292 302 303 SVHLDV | PhoP, residues 12 14 15 18 19 SPWRL (Escherichia coli, UniProt P23836) | Sort-seq, item: YFP reporter | E. coli | PhoQ-PhoP variant library, together with: 10 µM Mg2+ | baseline: high Mg2+ state, higher = stronger signaling | fold induction | 1.66

For quick reference, copied from above (block 1):
Strand | E-score
AACCCGAC | -0.00637
